Experimental data pooled from the literature.
Each line is one published result; not all experiments were run side by side.
Organism: Staphylococcus aureus

| SMILES | assay | test system | conditions | MIC |
| --- | --- | --- | --- | --- |
| CC[C@H](C)[C@H](NC(=O)[C@H](CCCCN)NC(=O)[C@H](Cc1c[nH]c2ccccc12)NC(=O)[C@H](Cc1c[nH]c2ccccc12)NC(=O)[C@H](CCCCN)NC(=O)[C@H](CCCCN)NC(=O)[C@H](CCCCN)NC(=O)[C@H](Cc1c[nH]c2ccccc12)NC(=O)[C@H](CCCCN)NC(=O)[C@H](CCCCN)NC(=O)[C@H](Cc1c[nH]c2ccccc12)NC(=O)[C@H](CCCCN)NC(=O)[C@H](CCCCN)NC(=O)[C@@H](NC(=O)[C@@H](NC(=O)[C@H](CCCCN)NC(=O)[C@@H](N)CCCNC(=N)N)[C@@H](C)CC)[C@@H](C)CC)C(=O)N[C@@H](Cc1c[nH]c2ccccc12)C(=O)N[C@@H](Cc1c[nH]c2ccccc12)C(=O)N[C@@H](CCCCN)C(N)=O | broth microdilution | 25295 | – | 1.25 µg/mL |
| CN[C@H](CC(C)C)C(=O)N[C@H]1C(=O)N[C@@H](CC(N)=O)C(=O)N[C@H]2C(=O)N[C@H]3C(=O)N[C@H](C(=O)N[C@H](C(=O)NCc4cn(CCCCC(=O)N[C@H](C(=O)N[C@@H](CCN)C(=O)N[C@H]5CCNC(=O)[C@H]([C@@H](C)O)NC(=O)[C@H](CCN)NC(=O)[C@H](CCN)NC(=O)[C@H](CC(C)C)NC(=O)[C@@H](CC(C)C)NC(=O)[C@H](CCN)NC5=O)[C@@H](C)O)nn4)c4cc(O)cc(O)c4-c4cc3ccc4O)[C@H](O)c3ccc(c(Cl)c3)Oc3cc2cc(c3O[C@@H]2O[C@H](CO)[C@@H](O)[C@H](O)[C@H]2O[C@H]2C[C@](C)(N)[C@H](O)[C@H](C)O2)Oc2ccc(cc2Cl)[C@H]1O | broth microdilution | VISA LIM-2, tryptic soy broth | 20 to 24 h, 37 °C, 0.002% polysorbate 80 | 2 µg/mL |
| Nc1ccccc1C(=O)OCC#CCOC(=O)c1ccccc1N | microbial growth, broth dilution | MB2865 | – | > 128 µg/mL |
| CC[C@H](C)[C@@H]1NC(=O)[C@@H]([C@@H](C)O)NC(=O)CNC(=O)[C@H](CC(=O)O)NC(=O)CNC(=O)[C@H](CC(=O)O)NC(=O)CNC(=O)[C@H]2CCCCN2C(=O)[C@@H](NC(=O)[C@H](CC(=O)O)NC(=O)/C=C/CCCCCCCCCC(C)C)CNC(=O)[C@@H]2CCCN2C1=O | broth microdilution | BR-VRSA strain 880, Mueller-Hinton broth, Mg2+ 10 mg/L | 16 h, together with: Ca2+ 10 mM | 2 µg/mL |
| CCCCCCCC[C@H](NC(=O)[C@@H]1CSC([C@@H](N)[C@@H](C)CC)=N1)C(=O)N[C@H](CCC(=O)O)C(=O)N[C@H](C(=O)N[C@H]1CCCCNC(=O)[C@H](CC(N)=O)NC(=O)[C@@H](CC(=O)O)NC(=O)[C@H](Cc2c[nH]cn2)NC(=O)[C@@H](Cc2ccccc2)NC(=O)[C@H]([C@@H](C)CC)NC(=O)[C@@H](CCCN)NC1=O)[C@@H](C)CC | – | USA300 MRSA | together with: ZnSO4 0.3 mM | 1 µg/mL |
| C#CCNC(=O)[C@H]1NC(=O)[C@H]2NC(=O)[C@H](NC(=O)[C@@H]3NC(=O)[C@H](CC(N)=O)NC(=O)[C@H](NC(=O)[C@@H](CC(C)C)NC)[C@H](O)c4ccc(c(Cl)c4)Oc4cc3cc(c4O[C@@H]3O[C@H](CO)[C@@H](O)[C@H](O)[C@H]3O[C@H]3C[C@](C)(N)[C@H](O)[C@H](C)O3)Oc3ccc(cc3Cl)[C@H]2O)c2ccc(O)c(c2)-c2c(O)cc(O)cc21 | broth microdilution | VISA LIM-2, tryptic soy broth | 20 to 24 h, 37 °C, 0.002% polysorbate 80 | 2 µg/mL |
| CC(=O)N[C@@H](CC(C)C)C(=O)N[C@H]1CSSC[C@@H](C(=O)N2CCC[C@H]2C(N)=O)NC(=O)[C@H]([C@@H](C)O)NC(=O)[C@H](C(C)C)NC(=O)[C@H]([C@@H](C)O)NC(=O)CNC(=O)[C@H](CCCCN)NC(=O)[C@H](Cc2ccccc2)NC(=O)[C@H](Cc2ccc(O)cc2)NC(=O)[C@H](CCCCN)NC(=O)[C@H](CCC(=O)O)NC(=O)[C@H](Cc2ccccc2)NC(=O)[C@H](CCCNC(=N)N)NC(=O)[C@H](CCCCN)NC(=O)[C@H](CC(C)C)NC(=O)[C@H](CC(=O)O)NC(=O)[C@@H]2CCCN2C(=O)[C@H](CCCCN)NC(=O)[C@H](C(C)C)NC(=O)[C@H](CCCCN)NC(=O)[C@H](CCCCN)NC(=O)[C@H]([C@@H](C)O)NC1=O | broth dilution | laboratory strain | 24 h | > 40 µM |
| CCCCCCCCCCCCCC(=O)N[C@H]1C(=O)N[C@@H](CN)C(=O)N[C@@H](CO)C(=O)N[C@@H](Cc2ccc(O)cc2)C(=O)O[C@H]1C | – | SH1000 | together with: lysophosphatidylethanolamine, molar ratio 1 | 2 µg/mL |
| CC[C@H](C)[C@H](NC(=O)[C@@H](CCCNC(=N)N)NC(=O)[C@H](CCCNC(=N)N)NC(=O)CNC(=O)[C@H](Cc1c[nH]c2ccccc12)NC(=O)[C@H](CCCNC(=N)N)NC(=O)[C@@H]1CCCN1C(=O)[C@H](CCCNC(=N)N)NC(=O)[C@@H]1CCCN1C(=O)[C@H](CC(C)C)NC(=O)[C@H](Cc1ccc(O)cc1)NC(=O)[C@@H]1CCCN1C(=O)[C@@H]1CCCN1C(=O)[C@H](CCCCN)NC(=O)[C@H](CC(=O)O)NC(=O)[C@@H](N)C(C)C)C(=O)N[C@@H](Cc1ccc(O)cc1)C(=O)N[C@@H](CC(N)=O)C(=O)N[C@H](CCCNC(=N)N)C(N)=O | broth microdilution | DSM 6247 | 18 h, 37 °C, 25% MHB2 | 32 µg/mL |
| CC(C)C[C@H](NC(=O)[C@H](CCCCN)NC(=O)[C@H](CC(C)C)NC(=O)[C@H](CCCCN)NC(=O)C1CCC=CCCC(NC(=O)[C@H](CCCCN)NC(=O)[C@H](CC(C)C)NC(=O)[C@H](CCCCN)NC(=O)[C@@H](N)CC(C)C)C(=O)N[C@@H](CCCCN)C(=O)N2CCC[C@@H]2C(=O)NCC(=O)N[C@@H](CCCCN)C(=O)N1)C(N)=O (stereo partly shown) | broth microdilution | ATCC 29737, Mueller-Hinton broth | 18 h, 37 °C | 128 µM |
| Cc1ccc2[nH]c3c(c2c1)CCCC3NCCc1ccc(Br)cc1 (stereo not shown) | broth microdilution | ATCC 29213 | – | 4 µg/mL |
| CN[C@H](CC(C)C)C(=O)N[C@H]1C(=O)N[C@@H](CC(N)=O)C(=O)N[C@H]2C(=O)N[C@H]3C(=O)N[C@H](C(=O)N[C@H](C(=O)NCc4cn(CC(=O)N[C@H](C(=O)N[C@@H](CCN)C(=O)N[C@H]5CCNC(=O)[C@H]([C@@H](C)O)NC(=O)[C@H](CCN)NC(=O)[C@H](CCN)NC(=O)[C@H](CC(C)C)NC(=O)[C@@H](CC(C)C)NC(=O)[C@H](CCN)NC5=O)[C@@H](C)O)nn4)c4cc(O)cc(O)c4-c4cc3ccc4O)[C@H](O)c3ccc(c(Cl)c3)Oc3cc2cc(c3O[C@@H]2O[C@H](CO)[C@@H](O)[C@H](O)[C@H]2O[C@H]2C[C@](C)(N)[C@H](O)[C@H](C)O2)Oc2ccc(cc2Cl)[C@H]1O | – | LIM-2 VISA | – | 0.8 µM |
| CC[C@H](C)[C@@H]1NC(=O)[C@H](CO)NC(=O)C(C)(CCCCN)NC(=O)[C@@H]2CSSC[C@@H](C(=O)N[C@@H](Cc3ccc(O)cc3)C(N)=O)NC(=O)[C@H](CCCCN)NC(=O)[C@@H]3CSSC[C@H](NC(=O)[C@H](CCCNC(=N)N)NC(=O)C(C)(CC(C)C)NC(=O)[C@H](CC(=O)O)NC(=O)[C@H](CC(=O)O)NC(=O)[C@H](CCC(=O)O)NC(=O)[C@H](CC(N)=O)NC(=O)[C@H](Cc4c[nH]c5ccccc45)NC(=O)C(C)(CC)NC(=O)CNC(=O)[C@H](CC(N)=O)NC(=O)[C@@H](NC(=O)CNC(=O)[C@H](Cc4ccccc4)NC(=O)CN)CSSC[C@H](NC(=O)[C@H](Cc4ccc(O)cc4)NC(=O)CNC(=O)CNC(=O)[C@H](CCCCN)NC(=O)[C@H](Cc4ccc(O)cc4)NC(=O)[C@H]4CCCN4C(=O)[C@@H]4CCCN4C1=O)C(=O)N[C@@H](C)C(=O)N[C@@H](CCCCN)C(=O)N1CCC[C@@H]1C(=O)NCC(=O)N[C@@H](Cc1ccccc1)C(=O)N[C@@H](C(C)C)C(=O)N3)C(=O)N[C@@H](Cc1c[nH]cn1)C(=O)NC(C)(C)C(=O)N[C@@H](Cc1c[nH]cn1)C(=O)N2 (stereo partly shown) | broth microdilution | ATCC 49775 | 18 h | 2 µM |

A few entries again:
| SMILES | assay | test system | conditions | MIC |
| --- | --- | --- | --- | --- |
| Cc1ccc2[nH]c3c(c2c1)CCCC3NCCc1ccc(Br)cc1 (stereo not shown) | broth microdilution | ATCC 29213 | – | 4 µg/mL |
